Measurements collected from several papers.
Protocols differ between the studies behind these lines. ± marks the error that the study gave.

O=C([O-])CN1CCN(CC(=O)[O-])CCN(CC(=O)NCC2CCC(C(=O)NC(Cc3ccc4ccccc4c3)C(=O)NCCCCC(NC(=O)NC(CCC(=O)O)C(=O)O)C(=O)O)CC2)CCN(CC(=O)[O-])CC1.[44Sc+3] (stereo not shown)  intact complex (transmetallation stability; 2 h, 37 °C, added: Mg2+ 10 mM): 98 ± 0.8%
O=C([O-])CN1CCN(CC(=O)NCCCCCNC(=O)CCC(NC(=O)NC(CCC(=O)O)C(=O)O)C(=O)O)CCN(Cc2cccc(C(=O)[O-])n2)CC1.[64Cu+2] (stereo not shown)  intact complex (radio-HPLC; PBS; 12 h, room temperature): 88.5%
NC12CNCCNCC(NCc3ccc(CNC(=O)CCCC(=O)NCc4ccc(-c5nncnn5)cc4)cc3)(CNCCNC1)CNCCNC2.[64Cu+2]  intact compound (human serum; 4 h, 37 °C): 81.2 ± 3.7%
CC(=O)N([O-])CCCCCNC(=O)CCC(=O)N([O-])CCCCCNC(=O)CCC(=O)N([O-])CCCCCN.[89Zr+4]  intact complex (radio-iTLC; aqueous buffer; 1 h, pH 5.5, 37 °C, EDTA challenge, added: 100-fold excess EDTA): 89.6 ± 0.7%
C[C@@H](NC(=O)[C@@H](Cc1ccccc1)NC(=O)[C@@H](Cc1c[nH]cn1)NC(=O)[C@@H](Cc1ccc(O)cc1)NC(=O)[C@@H](CCC(=O)O)NC(=O)[C@@H](CO)NC(=O)[C@H](N)CCC(N)=O)C(=O)O  intact peptide remaining (HPLC; human serum; 1 mg/mL, 2 h, 37 °C): 100%
N[C@@H]1CCCC[C@H]1N.O=C1[O][Pt]2([O]C1=O)[O]C(=O)C(=O)[O]2  intact complex remaining (water; 24 h, 37 °C, added: sodium ascorbate 15-fold excess): ~80%
O=C(NCCCN(CCCCN(CCCNC(=O)c1cccc(=O)n1[O-])C(=O)c1cccc(=O)n1[O-])C(=O)c1cccc(=O)n1[O-])c1cccc(=O)n1[O-].[89Zr+4]  intact complex (radio-TLC; PBS; 5 d, pH 7.4, 37 °C, added: Zn^2+ 10-fold excess): 97.7 ± 3.3%
N[C@@H](CSC(F)(F)[18F])C(=O)O  intact tracer (PBS; 2 h, pH 7.4, 37 °C): > 95%
O=C([O-])c1cccc(CN(CCN(Cc2cn(Cc3ccccc3)nn2)Cc2cccc(C(=O)[O-])n2)Cc2cn(Cc3ccccc3)nn2)n1.[67Ga+3]  intact radiocomplex (refers to: 67Ga; mouse serum; 2 h, 25 °C): 52%
O=C(NCC1OC2CCC=CCCC2O1)c1ccc(COCCOCCOCC[18F])cc1 (stereo not shown)  intact tracer remaining (mouse plasma; 2 h, 37 °C): 86 ± 1.61%
